Assay results from different studies.
Numbered parts are unrelated; each lists some results of a single study. Positions count from the first letter of the parent shown.

Sample 1
Target: Protein max, full length (MAX, Homo sapiens, UniProt P61244-2, residues 1-151)
Technique: protein-binding microarray
Form: double-stranded DNA, one strand shown
Matrix: in vitro
Concentration: not given
Notes: k-mer, scored over probes, only values ≥0.25
Reading: higher = stronger binding
| Sequence | E-score |
| --- | --- |
| ACGCGGAG | 0.255 |
| CGTGCAAC | 0.387 |
| CAACACGA | 0.293 |
| GTGCGGCA | 0.324 |
| CATGCTAA | 0.329 |
| CATATGGC | 0.357 |
| CATGCAAG | 0.278 |
| TAGCGTGA | 0.372 |
| ACATGTTC | 0.368 |
| ACGCTGTA | 0.256 |
| CATCACGC | 0.375 |
| CACACGCG | 0.451 |
| AACCACGT | 0.466 |
| CCATGCGA | 0.395 |
| CCCGCCAC | 0.275 |
| ACGCCGCA | 0.314 |

Sample 2
Target: CCNE2, cyclin fold, Cln2 fusion (human)
Technique: yeast growth competition, sequencing
Matrix: yeast
Notes: strong parent motif
Relative to: not given
Reading: higher = stronger binding
Parent: GMNC docking peptide (human); KNAKRNLSSEFAN
| Change | normalised enrichment score |
| --- | --- |
| KMAKRNLSSEFAN [N2M] | 0.875 |
| KNAKRNLSSEIAN [F11I] | 0.333 |
| KNAKRNLSSERAN [F11R] | 0.282 |
| KNAKRNLQSEFAN [S8Q] | 1.62 |
| KNAKRNLPSEFAN [S8P] | 0.121 |
| KNAKPNLSSEFAN [R5P] | -0.167 |
| KNAKRNLSKEFAN [S9K] | 2.09 |
| KNAKRNLSCEFAN [S9C] | 1.37 |
| KNAKRNLSSEFGN [A12G] | 0.935 |
| KDAKRNLSSEFAN [N2D] | 1.13 |
| KNAKRNLSSEHAN [F11H] | 0.000487 |
| KNAKRNLSSSFAN [E10S] | 0.74 |
| KNAKRNLSSCFAN [E10C] | 1.27 |
| KNAKRNLSSEMAN [F11M] | 0.834 |
| KNAKRNLSQEFAN [S9Q] | 1.72 |
| KNADRNLSSEFAN [K4D] | -0.133 |

Sample 3
Target: FOSL1, bZIP domain (human)
Technique: DHFR protein complementation
Matrix: yeast
Notes: single substitutions, most at no-binding floor
Relative to: wild-type JUN-FOS pair
Reading: higher = stronger binding
Parent: JUN, bZIP domain (human); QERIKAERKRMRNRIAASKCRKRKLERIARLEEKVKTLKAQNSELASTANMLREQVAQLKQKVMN; partner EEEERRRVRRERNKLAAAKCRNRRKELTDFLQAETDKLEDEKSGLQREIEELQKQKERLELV
| Change | binding fitness |
| --- | --- |
| E44H | -0.575 natural log |
| M51Q | -0.303 natural log |
| E32T | -0.44 natural log |
| S43R | -0.237 natural log |
| A40Q | -0.282 natural log |
| L31T | -1.33 natural log |
| L45T | -1.44 natural log |
| R30C | -0.36 natural log |
| R30Y | -0.356 natural log |
| E44C | -0.747 natural log |
| K39N | -0.848 natural log |
| E44S | -0.588 natural log |
| E32W | -0.685 natural log |
| A40H | -0.441 natural log |
| N42W | -1.39 natural log |
| L52T | -1.47 natural log |
| S47C | -0.421 natural log |

Sample 4
Target: ABI1, truncated, D143A, DHFR fusion (Arabidopsis thaliana)
Technique: DHFR PCA, deep sequencing
Matrix: yeast
Notes: methotrexate growth selection, single substitutions
Added: (+)-ABA 0.11 µM
Relative to: wild-type fitted maximum
Reading: higher = stronger binding
Parent: PYL1, truncated, DHFR fusion (Arabidopsis thaliana); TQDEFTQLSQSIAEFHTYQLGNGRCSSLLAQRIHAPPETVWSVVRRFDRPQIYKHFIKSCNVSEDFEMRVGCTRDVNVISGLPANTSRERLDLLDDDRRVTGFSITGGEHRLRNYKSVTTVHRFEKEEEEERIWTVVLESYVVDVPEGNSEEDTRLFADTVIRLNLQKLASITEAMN; partner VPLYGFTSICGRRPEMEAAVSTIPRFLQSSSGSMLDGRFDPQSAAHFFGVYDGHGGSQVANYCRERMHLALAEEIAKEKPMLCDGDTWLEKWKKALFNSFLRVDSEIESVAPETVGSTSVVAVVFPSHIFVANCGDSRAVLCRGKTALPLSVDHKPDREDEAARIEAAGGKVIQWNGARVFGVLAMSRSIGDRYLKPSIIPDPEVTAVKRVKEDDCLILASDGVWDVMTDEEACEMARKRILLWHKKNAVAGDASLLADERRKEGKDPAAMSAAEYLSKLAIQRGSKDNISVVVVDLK
| Change | relative binding score |
| --- | --- |
| V43F | 5.02% |
| N77D | 36.5% |
| W134A | 6.14% |
| L169K | -5.41% |
| E89A | -5.59% |
| D3A | 36.9% |
| Q51M | 3.33% |
| G108A | 3.13% |
| N85I | 68.1% |
| K126R | 49.8% |
| S26C | 22.8% |
| R49W | -2.38% |
| E64H | 28.5% |
| C60V | 43.3% |
| E147L | 21.5% |

Sample 5
Target: RNA binding protein fox-1 homolog 2, RRM domain, GST-SBP tag (RBFOX2, Homo sapiens, UniProt O43251-10, residues 100-194)
Technique: RNA Bind-n-Seq
Form: RNA
Matrix: in vitro
Concentration: 365 nM
Notes: natural RNA segment, single round, ends assumed
Relative to: no-protein control
Reading: higher = stronger binding
All sequences stand within: GGGAGUUCUACAGUCCGACGAUC … UGGAAUUCUCGGGUGCCAA
Target sequence (chain): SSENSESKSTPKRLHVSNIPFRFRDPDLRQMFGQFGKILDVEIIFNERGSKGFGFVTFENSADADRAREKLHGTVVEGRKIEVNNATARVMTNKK
| Sequence | RBNS enrichment (R) |
| --- | --- |
| CAAACGUUCCUACAGCCUAGAGGUGCGUAUACACACCCAAGUACACGCAGCCAGGCAUUCAGGGGUGUGUUUGCCACAUGGAGCAUCCCUUCCUGGUCUUGCCAGGCACC | 0.344 |
| AUUGUGCCUUUUAAUUAGAGGUCUAGAAAGUUCACCUGAACCCACACCCCCUUCUUCCUGAGAAUUCUGGUGCCUCUAAAGCCCCUCCUUGCCACUCAGGGUUUUAGUGG | 0.308 |
| UAUCAUUGUGAAAACUCAUGUUGUAUUACUUUUUAUUAAUUGUAAUUUGGGAUACAUAUAAGUUAAUCUUAUCAAAUAAUAUUUAAAAUUGUCAAUCAAUUUUACCAAUA | 0.762 |
| AGGUGACAUUUGUUCAUUCUCUAAUCCCAUCCUCUCACCCAUCCAUUUCCUCACUCAGUGGAGAUUUGCCAAAUGAAUAAACGACACCUUUGAGGCCCCAGGUGAAGCGG | 0.497 |
| UAAAUCCUUCAUGACCAUUCUCUUAAUUUGAACUCGUAGCUUGGGCUUUAAGGUAGCAUGGCUCGAUUGCUGUCGACUUAAUGUUCCACUGCACAGCAAUUCACGGCCAG | 2.15 |
| AAGCCAAGUGGAAUGGAGCCGGCCAAGCUGAGCCUGACUUUUUUCAAUAAAACAUUGUGUACUUCUGGCCUCCUGCUGCUCCGGCUCUUUUUUCCCUGGCGCCAAGGGAA | 0.248 |
| GAAAGGCUUUGAGGGGCUCUGGCUGGUGGCCAGGUUGGCUUUUUGUAUUUCUGGUUGACACACCAUGGCGCUUCCCAGCACAGACAUGUGACCAGCAUGGUCCAGGAAAA | 1 |
| GCUGGAAUUGAGUGUGUGCCACCUUGACCAGCCUUUUGUUUCCUUUUUAAUACUAAACCUUACAGUCAGGAUUUGGAGUUCUUACAUCAUAUAUAAUAUGUAAUAAACCA | 0.272 |
| ACAGCUGUUCCCUCGCAUGUUAUUUCAUGAACAUGACCUGUUUUCGUGCACUAGACACACAGAGUGGAACAGCCGUAUGCUUAAAGUACAUGGGCCAGUGGGACUGGAAG | 0.42 |
| GGCUGUUUCAAAAAAAUCUAUUGACUUUUCAAUAAAUCAGCUGCAAUCCAUUUAUUUCAUUUACAAAAGAUUUAUUGUAAGCAUCUCAAUCUUGGUUUGUCAGUUUAUCU | 0.61 |
| UAGAGGGAUGUGUGACGGAAUACAGUAUUAGGGUUCACCAUAGCAGACUCUGCGCUUUAUCUGUCUAUGGUGAAGGAUAGGGCGCAAUCACUUUAAUUGUAAUGAUAGAU | 0.438 |
| GACUACAAUUUCUUUUCAUAAAACUUCUUCUCUUCUUGGAAUUAUUAAUUCCUAUCUGCUUCCUAGCUGAUAAAGCUUAGAAAAGGCAGUUAUUCCUUCUUUCCAACCAG | 0.449 |

Sample 6
Target: UBE2V1 UBC core domain (UniProt Q13404)
Technique: yeast two-hybrid
Matrix: yeast
Notes: mostly zero background
Relative to: not given
Reading: higher = stronger interaction
B1: ARIH2 RING domain (UniProt O95376); chain HVPTSHPPHHCAVCMQFVRKENLLSLACQHQFCRSCWEQHCSVLVKDGVGVGVSCMAQDCPLRTPEDFVF
B2: RNF186 RING domain (UniProt Q9NXI6); chain HSGSTECDLECLVCREPYSCPRLPKLLACQHAFCAICLKLLLCVQDNTWSITCPLCRKVTAVPGGLI
B3: NFX1 RING domain (UniProt Q12986); chain IEQLTTEKYECMVCCELVRVTAPVWSCQSCYHVFHLNCIKKWARSPASQADGQSGWRCPACQNVSAHVPNTY
B4: RNF182 RING domain (UniProt Q8N6D2); chain AESQASDELECKICYNRYNLKQRKPKVLECCHRVCAKCLYKIIDFGDSPQGVIVCPFCRFETCLPDDEV
B5: MID2 RING domain (UniProt Q9UJV3); chain KMETLESELTCPICLELFEDPLLLPCAHSLCFSCAHRILVSSCSSGESIEPITAFQCPTCRYVISLNHRGL
B6: BFAR RING domain (UniProt Q9NZS9); chain GPQISVSEFSCHCCYDILVNPTTLNCGHSFCRHCLALWWASSKKTECPECREKWEGFPKVS
B7: RNF6 RING domain (UniProt Q9Y252); chain NSIDSELGKICSVCISDYVTGNKLRQLPCMHEFHIHCIDRWLSENCTCPICRQPVLGSNIAN
B8: VPS8 RING domain (UniProt Q8N3P4); chain TRGLNPKQDYCSICLQQYKRRQEMADEIIVFSCGHLYHSFCLQNKECTVEFEGQTRWTCYKCSSSNKVGKLSE
Target sequence (chain): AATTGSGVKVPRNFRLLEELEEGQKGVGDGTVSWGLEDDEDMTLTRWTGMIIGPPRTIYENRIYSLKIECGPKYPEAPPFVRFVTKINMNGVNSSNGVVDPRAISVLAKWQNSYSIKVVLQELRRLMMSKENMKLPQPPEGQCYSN
| Sequence | lacZ reporter activity |
| --- | --- |
| B1 (ARIH2 RING domain) | 0 |
| B2 (RNF186 RING domain) | 0 |
| B3 (NFX1 RING domain) | 0 |
| EIKEYKARLTCPCCNTRKKDAVLTKCFHVFCFECVRGRYEARQRKCPKCNAAFGAHDFHR (RNF40 RING domain (UniProt O75150)) | 0 |
| B4 (RNF182 RING domain) | 0 |
| DDVLTKDAGECVICLEELLQGDTIARLPCLCIYHKSCIDSWFEVNRSCPEHPAD (ZNRF1 RING domain (UniProt Q8ND25)) | 0 |
| B5 (MID2 RING domain) | 0 |
| B6 (BFAR RING domain) | 0 |
| LEALSSDFLACKICLEQLRAPKTLPCLHTYCQDCLAQLADGGRVRCPECRETVPVPPEGV (TRIM56 RING domain (UniProt Q9BRZ2)) | 0 |
| B7 (RNF6 RING domain) | 0 |
| B8 (VPS8 RING domain) | 0 |

Some of these lines once more (sample 4):
| Change | relative binding score |
| --- | --- |
| N77D | 36.5% |
| W134A | 6.14% |
| L169K | -5.41% |
| E89A | -5.59% |
| D3A | 36.9% |
| Q51M | 3.33% |
| G108A | 3.13% |
